Measured values gathered from unrelated publications.
“And” joins repeats or separate records; there may be more than shown. ± marks the error that the study gave.

`O=c1c(O)c(-c2ccc(O)c(O)c2)oc2cc(O)cc(O)c12` has an IC50 of 726.9 ± 1.02 µM (arginine-methylglyoxal glycation; AGE formation, inhibitor).
For `CC(C)C[C@H](NC(=O)[C@@H](O)[C@H](N)Cc1ccccc1)C(=O)O`, the IC50 was 1.08 µM (aminopeptidase, human cell surface; enzyme activity, inhibitor; K562, cell suspension; together with: Leu-AMC substrate).
For `COc1ccc2c(c1OC)C(=O)O[C@@H]2[C@H]1c2c(c(C)c3c(c2OC)OCO3)CCN1C`, the IC50 was greater than 400 µM (tubulin, bovine brain; inhibitor).
With `Isoeugenol` the IC50 was 0.00015 µg/mL (anti-eugenol monoclonal antibody (mouse); antibody binding, indirect competitive ELISA; buffer; together with: coating antigen Eug-222-OVA 0.5 µg/mL).
`CC[C@H](CC[C@@H](C)[C@H]1CC[C@H]2[C@@H]3CC=C4C[C@@H](O)CC[C@]4(C)[C@H]3CC[C@]12C)C(C)C` gave an IC50 of greater than 1300 µM (arginine-methylglyoxal glycation; AGE formation, inhibitor).
For `O=c1c(O)c(-c2ccc(O)c(O)c2)oc2cc(O)cc(O)c12`, the IC50 was 36 µM (class IIa HDAC; enzyme activity; bovine heart lysate).
The IC50 of `CC(=O)OCCOC(C)=O` is reported as 17100 µM (lysine-containing peptide; peptide depletion, mass spectrometry; 24 h, pH 10.2, room temperature, together with: lysine peptide 0.5 mM).
The IC50 of `CC(/C=C/C(=O)NO)=C\[C@@H](C)C(=O)c1ccc(N(C)C)cc1` is reported as 0.22 µM (HDAC class I/II; enzyme activity, inhibitor, HDAC-Glo I/II; HCT-116; 6 h).
`O=C(O)/C=C/c1ccc(O)c(O)c1` gave an IC50 of greater than 80 µM (class IIb HDAC; enzyme activity, inhibitor; bovine cardiac tissue).
`CNC(=O)c1cc(Oc2ccc(NC(=O)Nc3ccc(Cl)c(C(F)(F)F)c3)cc2)ccn1` gave an IC50 of 0.00014 µM (FLT3-ITD; inhibitor; MOLM-13, mouse, subcutaneous MOLM-13 xenograft, plasma, free concentration).
The IC50 of `COc1cccc(-c2c3c(c(OC)c4c2OCO4)[C@H]([C@H]2OC(=O)c4c2ccc(OC)c4OC)N(C)CC3)c1` is reported as greater than 400 µM (tubulin, bovine brain; inhibitor).
`COc1cc(C=O)ccc1O` has an IC50 of greater than 10 µg/mL (anti-eugenol monoclonal antibody mouse; antibody binding, indirect competitive ELISA; antibody 0.25 µg/mL, together with: coating antigen Eug-222-OVA 0.5 µg/mL).
For `Cc1ccc(C(=O)NNC(=O)c2c(C)cccc2Cl)cc1C#Cc1cnc2ccccc2c1`, the IC50 was 0.167 µM (BCR-ABL1; cell proliferation; BCR-ABL1-positive cells).
With `O=c1c(O)c(-c2cc(O)c(O)c(O)c2)oc2cc(O)cc(O)c12` the IC50 was 27 µM (class IIb HDAC; enzyme activity; bovine heart lysate).
`C/N=C1\NC(=O)S\C1=C/c1ccc2c(c1)OCO2` has an IC50 of greater than 90 µM (class I PI3K; enzyme activity, inhibitor).
The IC50 of `NC[C@H]1O[C@H](O[C@H]2[C@H](O)[C@@H](O[C@H]3O[C@H](CO)[C@@H](O)[C@H](N)[C@H]3O)[C@H](N)C[C@@H]2N)[C@H](N)C[C@@H]1O` is reported as 17.6 ± 1.3 µM (HIV-1 nucleocapsid protein-SL4 RNA complex; complex dissociation, ESI-FTMS; preformed complex ~3.5 µM).
For `N[C@@H](C(=O)O)[C@H](O)[C@@]1(C(=O)O)CC[C@H](C[C@H](NC(=O)c2cc(Cl)c(O)c(Cl)c2)C(=O)O)N1`, the IC50 was 0.075 ± 0.009 µM (rat cortex NMDA receptor; ion current, antagonist, two-electrode voltage clamp; Xenopus oocytes; pH 7.4, holding potential -80 mV, together with: NMDA 10 µM + glycine 100 µM).
`O=CCCCC=O` has an IC50 of 1020 µM (lysine-containing peptide; peptide depletion, mass spectrometry; 24 h, pH 10.2, room temperature, together with: lysine peptide 0.5 mM).
`CCCCNc1ccc(C(=O)OCCN(C)C)cc1` has an IC50 of greater than 10 µg/mL (anti-eugenol monoclonal antibody mouse; antibody binding, indirect competitive ELISA; antibody 0.25 µg/mL, together with: coating antigen Eug-222-OVA 0.5 µg/mL).
With `Oc1cc2c(cc1O)[C@@H]1c3ccc(O)c(O)c3OC[C@]1(O)C2` the IC50 was 89 µM (class IIb HDAC; enzyme activity; bovine heart lysate).
The IC50 of `CCc1ccc(O)c(OC)c1` is reported as 0.441 µg/mL (anti-eugenol monoclonal antibody mouse; antibody binding, indirect competitive ELISA; antibody 0.25 µg/mL, together with: coating antigen Eug-222-OVA 0.5 µg/mL).
With `O=c1cc(-c2ccc(O)c(O)c2)oc2cc(O)cc(O)c12` the IC50 was 18 µM (class IIb HDAC; enzyme activity; bovine heart lysate).
`CCOC(=O)c1ccc(N)cc1` gave an IC50 of greater than 10 µg/mL (anti-eugenol monoclonal antibody mouse; antibody binding, indirect competitive ELISA; antibody 0.25 µg/mL, together with: coating antigen Eug-222-OVA 0.5 µg/mL).
The IC50 of `O=C(O)[C@H]1O[C@@H](Oc2cc3oc(-c4ccccc4)cc(=O)c3c(O)c2O)[C@H](O)[C@@H](O)[C@@H]1O` is reported as 84 µM (class IIb HDAC; enzyme activity; bovine heart lysate).
For `Cc1c(-c2ccc(O)cc2)nn(-c2ccc(O)cc2)c1-c1ccc(OCCN2CCCCC2)cc1`, the IC50 was 8.8 ± 1.5 µM (TLR4 (mouse); TNF-alpha production, inhibitor; RAW264.7; 6 h, together with: LPS 10 ng/mL).
The IC50 of `Oc1ccccc1O` is reported as greater than 10 µg/mL (anti-eugenol monoclonal antibody mouse; antibody binding, indirect competitive ELISA; antibody 0.25 µg/mL, together with: coating antigen Eug-222-OVA 0.5 µg/mL).
The IC50 of `CCCCC[C@H](CC(=O)NO)C(=O)N[C@H](C(=O)N1CCC[C@H]1CO)C(C)C` is reported as 1.19 µM (aminopeptidase, human cell surface; enzyme activity, inhibitor; K562, cell suspension; together with: Leu-AMC substrate).
`N=C(N)c1ccc(-c2cc3ccc(C(=N)N)cc3[nH]2)cc1` gave an IC50 of 2.8 µM (ASIC, mouse; ion current, inhibitor, whole-cell voltage clamp; mouse hippocampal neurons, primary; holding -60 mV, together with: pH 5.8).
The IC50 of `O=c1c(O)c(-c2ccc(O)cc2)oc2cc(O)cc(O)c12` is reported as 29 µM (class IIb HDAC; enzyme activity; bovine heart lysate).
`O=C(O)c1nn(Cc2ccc(Cl)cc2Cl)c2ccccc12` has an IC50 of 25 µM and ~25 µM (mitochondrial respiration, rat; uncoupled glutamate plus malate oxidation; rat liver mitochondria; 30 °C).
With `O=C(O[C@@H]1Cc2c(O)cc(O)cc2O[C@@H]1c1cc(O)c(O)c(O)c1)c1cc(O)c(O)c(O)c1` the IC50 was 90 µM (class IIa HDAC; enzyme activity; bovine heart lysate).
For `CC[C@H](Nc1ncnc2[nH]cnc12)c1nc2cccc(F)c2c(=O)n1-c1ccccc1`, the IC50 was 0.041 µM (Akt Ser473 phosphorylation; inhibitor, measured: phospho-Akt Ser473; Ri-1 human B cell lymphoma cells; together with: anti-IgM).
